Measured values collected from several papers.
Each line is one published result; not all experiments were run side by side. Numbers after ± are the reported error.
UniProt Q5VST6, sequence (whole entry, looked up): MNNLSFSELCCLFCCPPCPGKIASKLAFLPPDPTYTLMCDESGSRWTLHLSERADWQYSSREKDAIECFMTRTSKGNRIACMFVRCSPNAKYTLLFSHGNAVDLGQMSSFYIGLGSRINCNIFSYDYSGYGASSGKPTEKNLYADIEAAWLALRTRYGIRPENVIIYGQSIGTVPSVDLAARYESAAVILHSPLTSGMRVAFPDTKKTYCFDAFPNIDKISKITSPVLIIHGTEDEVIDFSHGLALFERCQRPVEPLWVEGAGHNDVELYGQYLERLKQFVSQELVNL
UniProt O00187, sequence (whole entry, looked up): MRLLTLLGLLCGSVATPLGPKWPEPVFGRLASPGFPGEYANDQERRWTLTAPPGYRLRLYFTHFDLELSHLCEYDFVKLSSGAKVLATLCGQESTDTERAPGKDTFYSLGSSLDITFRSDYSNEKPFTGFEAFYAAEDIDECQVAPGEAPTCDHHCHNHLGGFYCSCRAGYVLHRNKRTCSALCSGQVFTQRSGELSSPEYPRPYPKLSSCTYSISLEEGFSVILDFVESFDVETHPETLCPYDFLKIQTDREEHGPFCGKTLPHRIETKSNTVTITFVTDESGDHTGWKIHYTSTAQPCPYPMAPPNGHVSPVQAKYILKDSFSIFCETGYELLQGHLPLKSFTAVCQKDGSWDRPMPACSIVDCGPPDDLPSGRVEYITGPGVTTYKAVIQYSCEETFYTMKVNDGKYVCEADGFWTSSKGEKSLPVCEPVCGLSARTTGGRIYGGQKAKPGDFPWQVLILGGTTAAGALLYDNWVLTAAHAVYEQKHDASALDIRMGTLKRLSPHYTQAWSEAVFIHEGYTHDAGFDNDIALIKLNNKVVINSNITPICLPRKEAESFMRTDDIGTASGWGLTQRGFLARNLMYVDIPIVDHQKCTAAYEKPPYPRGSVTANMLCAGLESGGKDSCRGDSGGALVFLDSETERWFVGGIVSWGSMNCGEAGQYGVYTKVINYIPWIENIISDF
UniProt P97612, sequence (whole entry, looked up): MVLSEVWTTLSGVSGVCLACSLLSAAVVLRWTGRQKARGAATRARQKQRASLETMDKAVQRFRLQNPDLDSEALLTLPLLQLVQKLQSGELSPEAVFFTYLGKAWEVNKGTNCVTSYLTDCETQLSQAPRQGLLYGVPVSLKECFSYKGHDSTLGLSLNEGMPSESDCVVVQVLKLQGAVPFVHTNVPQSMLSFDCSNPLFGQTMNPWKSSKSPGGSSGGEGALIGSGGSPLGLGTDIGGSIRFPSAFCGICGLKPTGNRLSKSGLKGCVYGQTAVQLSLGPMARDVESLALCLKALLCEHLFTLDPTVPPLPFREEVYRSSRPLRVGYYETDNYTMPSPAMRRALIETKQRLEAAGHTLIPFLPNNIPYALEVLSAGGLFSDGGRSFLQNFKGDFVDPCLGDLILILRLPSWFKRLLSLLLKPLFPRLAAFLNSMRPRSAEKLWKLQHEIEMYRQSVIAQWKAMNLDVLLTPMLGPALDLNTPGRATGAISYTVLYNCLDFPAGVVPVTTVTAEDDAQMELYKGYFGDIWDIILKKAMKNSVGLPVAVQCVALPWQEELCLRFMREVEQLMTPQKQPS
UniProt P03303, sequence (whole entry, looked up): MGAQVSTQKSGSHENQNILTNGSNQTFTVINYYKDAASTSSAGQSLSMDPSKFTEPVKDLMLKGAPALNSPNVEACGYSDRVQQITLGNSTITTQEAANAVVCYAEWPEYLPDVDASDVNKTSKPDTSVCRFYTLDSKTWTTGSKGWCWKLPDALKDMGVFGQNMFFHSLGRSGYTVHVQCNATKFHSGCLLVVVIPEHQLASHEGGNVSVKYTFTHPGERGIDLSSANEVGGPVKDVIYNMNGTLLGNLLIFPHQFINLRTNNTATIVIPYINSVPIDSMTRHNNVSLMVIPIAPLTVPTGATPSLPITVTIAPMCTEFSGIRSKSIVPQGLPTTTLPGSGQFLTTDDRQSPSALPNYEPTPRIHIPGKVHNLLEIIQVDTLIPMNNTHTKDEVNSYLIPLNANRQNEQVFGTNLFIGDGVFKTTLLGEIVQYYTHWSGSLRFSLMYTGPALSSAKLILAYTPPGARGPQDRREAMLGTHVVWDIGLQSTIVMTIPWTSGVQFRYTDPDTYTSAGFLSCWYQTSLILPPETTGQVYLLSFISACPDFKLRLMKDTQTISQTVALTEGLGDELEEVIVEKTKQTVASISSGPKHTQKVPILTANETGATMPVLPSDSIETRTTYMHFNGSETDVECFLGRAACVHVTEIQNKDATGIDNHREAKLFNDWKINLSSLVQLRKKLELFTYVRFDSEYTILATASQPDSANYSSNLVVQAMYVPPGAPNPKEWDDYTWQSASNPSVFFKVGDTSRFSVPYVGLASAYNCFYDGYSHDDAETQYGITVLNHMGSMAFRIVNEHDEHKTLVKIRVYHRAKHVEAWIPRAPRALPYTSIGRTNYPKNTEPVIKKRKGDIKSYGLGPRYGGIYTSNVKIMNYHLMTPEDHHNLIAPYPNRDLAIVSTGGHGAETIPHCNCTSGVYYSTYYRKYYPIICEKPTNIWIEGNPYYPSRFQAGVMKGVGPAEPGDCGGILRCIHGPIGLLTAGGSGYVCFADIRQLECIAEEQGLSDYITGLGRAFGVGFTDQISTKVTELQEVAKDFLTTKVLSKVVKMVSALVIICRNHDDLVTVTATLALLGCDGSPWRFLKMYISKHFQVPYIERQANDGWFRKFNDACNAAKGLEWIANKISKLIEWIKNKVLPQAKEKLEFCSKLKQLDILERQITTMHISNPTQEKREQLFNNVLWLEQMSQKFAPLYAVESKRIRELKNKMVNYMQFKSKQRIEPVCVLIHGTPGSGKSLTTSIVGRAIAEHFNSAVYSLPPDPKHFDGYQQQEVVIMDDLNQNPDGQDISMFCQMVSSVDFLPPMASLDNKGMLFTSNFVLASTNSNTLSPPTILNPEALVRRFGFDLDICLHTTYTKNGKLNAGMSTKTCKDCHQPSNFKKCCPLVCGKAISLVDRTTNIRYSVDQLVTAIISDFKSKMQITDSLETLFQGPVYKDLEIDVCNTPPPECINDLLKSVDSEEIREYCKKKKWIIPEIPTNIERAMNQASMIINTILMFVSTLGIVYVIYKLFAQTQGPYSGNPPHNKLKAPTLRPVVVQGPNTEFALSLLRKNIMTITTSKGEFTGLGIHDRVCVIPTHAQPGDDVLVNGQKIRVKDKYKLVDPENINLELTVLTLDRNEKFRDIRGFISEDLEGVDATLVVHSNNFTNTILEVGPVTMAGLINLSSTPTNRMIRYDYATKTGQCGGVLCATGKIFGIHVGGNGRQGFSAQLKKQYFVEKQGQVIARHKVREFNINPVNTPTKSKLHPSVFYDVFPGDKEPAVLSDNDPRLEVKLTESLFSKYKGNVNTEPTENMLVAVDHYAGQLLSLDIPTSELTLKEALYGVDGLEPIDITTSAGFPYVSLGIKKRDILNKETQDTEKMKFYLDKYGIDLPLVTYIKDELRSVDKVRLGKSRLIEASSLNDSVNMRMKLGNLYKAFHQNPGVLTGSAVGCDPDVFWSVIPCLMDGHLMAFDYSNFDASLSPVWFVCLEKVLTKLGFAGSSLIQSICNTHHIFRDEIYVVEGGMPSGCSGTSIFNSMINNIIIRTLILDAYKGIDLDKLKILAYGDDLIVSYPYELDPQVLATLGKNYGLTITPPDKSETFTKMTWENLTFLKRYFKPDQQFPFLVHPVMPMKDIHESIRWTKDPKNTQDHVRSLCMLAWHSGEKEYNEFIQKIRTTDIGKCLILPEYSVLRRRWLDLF
UniProt C7FF04, sequence (whole entry, looked up): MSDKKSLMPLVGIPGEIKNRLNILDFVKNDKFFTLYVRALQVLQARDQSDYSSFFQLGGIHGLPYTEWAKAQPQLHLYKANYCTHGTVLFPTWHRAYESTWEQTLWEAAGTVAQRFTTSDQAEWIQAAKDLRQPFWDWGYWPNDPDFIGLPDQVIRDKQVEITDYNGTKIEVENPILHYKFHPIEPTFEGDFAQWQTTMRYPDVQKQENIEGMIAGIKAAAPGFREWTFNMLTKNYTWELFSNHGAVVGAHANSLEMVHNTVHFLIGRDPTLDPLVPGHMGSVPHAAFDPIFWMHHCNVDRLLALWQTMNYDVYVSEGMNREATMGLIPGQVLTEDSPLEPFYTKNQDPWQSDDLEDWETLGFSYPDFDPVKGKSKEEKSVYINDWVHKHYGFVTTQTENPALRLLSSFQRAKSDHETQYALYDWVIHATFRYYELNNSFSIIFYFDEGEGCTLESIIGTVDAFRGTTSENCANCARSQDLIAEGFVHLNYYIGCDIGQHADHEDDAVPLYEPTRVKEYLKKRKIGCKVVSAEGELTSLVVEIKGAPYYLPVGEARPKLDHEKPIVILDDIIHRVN
UniProt Q99828, sequence (whole entry, looked up): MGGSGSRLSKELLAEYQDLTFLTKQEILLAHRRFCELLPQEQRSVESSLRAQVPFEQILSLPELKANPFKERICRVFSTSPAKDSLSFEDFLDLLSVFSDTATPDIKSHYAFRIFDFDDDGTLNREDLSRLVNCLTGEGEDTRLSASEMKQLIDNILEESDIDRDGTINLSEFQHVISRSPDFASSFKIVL

SMILES | target | assay | test system | setting | IC50
CC[C@H](C)[C@@H]1NC(=O)[C@H](Cc2ccccc2)NC(=O)[C@H](C)NC(=O)[C@@H](NC(=O)[C@@H](NC(=O)[C@H](CO)NC(=O)[C@@H](N)Cc2ccc(O)cc2)[C@@H](C)O)CSC(=O)[C@H](CCSC)NC1=O | Receptor-histidine kinase AgrC (agrC, Staphylococcus aureus, UniProt O07911) |  |  |  | 0.214 nM
CC(C)C[C@H](NC(=O)[C@H](CC(C)C)NC(=O)[C@H](CCC(=O)O)NC(=O)[C@@H](N)CS)C(=O)O | PPO3 (Agaricus bisporus, UniProt C7FF04) | enzyme activity, inhibitor |  |  | 149000 nM
C[C@H]1CN(Cc2ccc(C(F)(F)F)cc2N2C3CCC2CN(CC(=O)O)C3)CCN1C(=O)n1ccc(S(=O)(=O)N(C)C)n1 | ABHD17B (Homo sapiens, UniProt Q5VST6) | cell-free assay, inhibitor |  | lysate | 210 nM
COc1ccccc1-c1nc2sc3c(c2c(=O)o1)CCC3 | Genome polyprotein, 3C protease (rhinovirus B14, UniProt P03303) | 3C protease activity, SAMDI-MS | human rhinovirus |  | 3940 nM
Nc1cc(Oc2ccc(-c3ccccc3)cc2)nn1S(=O)(=O)c1ccc(Oc2ccccc2)cc1 | Genome polyprotein, NS2B-NS3 protease (dengue virus type 2, UniProt P29990) | enzyme activity, inhibitor |  | 30 min preincubation, added: 20 µM Bz-nKRR-AMC | 2900 ± 500 nM
CCCCCCCCCCCCCCCc1ccc(C(O)P(=O)(O)O)cc1 (racemic) | Autotaxin (ENPP2, Homo sapiens, UniProt Q13822) | enzyme activity, inhibitor |  | added: FS-3 1 µM | 730 nM
CC[C@H](C)[C@H](NC(=O)[C@@H]1CSSC[C@H](NC(=O)[C@H](Cc2ccc(O)cc2)NC(=O)CNC(C)=O)C(=O)N[C@@H](CO)C(=O)N[C@@H](CCCNC(=N)N)C(=O)N[C@@H](CO)C(=O)N[C@@H](Cc2ccc(O)cc2)C(=O)N2CCC[C@H]2C(=O)N2CCC[C@H]2C(=O)N[C@@H](C(C)C)C(=O)N1)C(=O)N1CCC[C@H]1C(=O)N[C@@H](CC(=O)O)C(=O)O | Mannan-binding lectin serine protease 2 (Homo sapiens, UniProt O00187) | C3 deposition, inhibitor, ELISA | 100-fold diluted human serum | 30 min preincubation | 624 nM
CC(C)C[C@@H]1NC(=O)[C@H](CCCNC(=N)N)NC(=O)[C@H](CCCCN)NC(=O)[C@H](CC(=O)O)NC(=O)[C@H](CCCCN)NC(=O)[C@@H](CO)NC1=O | Disintegrin and metalloproteinase domain-containing protein 9 (Homo sapiens, UniProt Q13443) | enzyme activity, inhibitor, fluorescence |  |  | > 10000 nM
O=C(NCCCCCn1ccc2ccc(F)cc21)Oc1cccc(F)c1 | Fatty-acid amide hydrolase 1 (Faah, Rattus norvegicus, UniProt P97612) |  | rat brain homogenate | 60 min, 37 °C | 15 nM
CSCC[C@H](NC(=O)C(C)(C)NC(=O)CNC(=O)[C@H](Cc1ccc(O)cc1)NC(=O)[C@H](Cc1c[nH]c2ccccc12)NC(=O)[C@H](Cc1ccccc1)NC(=O)[C@H](CO)NC(=O)CNC(=O)CNC(=O)[C@H](CC(=O)O)NC(=O)[C@@H](N)CCC(=O)O)C(=O)N[C@@H](CCCCN)C(=O)N[C@@H](C)C(=O)N[C@@H](CC(C)C)C(=O)N[C@@H](Cc1ccc(O)cc1)C(=O)NCC(N)=O | Calcium and integrin-binding protein 1 (CIB1, Homo sapiens, UniProt Q99828) |  |  |  | 17 nM
Nn1c(-c2ccc(-n3nc(-c4ccccc4O)nc3-c3ccccc3O)cc2)n[nH]c1=S | 5-lipoxygenase |  |  |  | 840 ± 50 nM
CCCC[C@H]1C(=O)N(C)[C@@H](CCCC)C(=O)N[C@@H](CCCNC(=O)CN2CCN(CC(=O)O)CCN(CC(=O)O)CCN(CC(=O)O)CC2)C(=O)N[C@H](C(=O)NCC(N)=O)CSCC(=O)N[C@@H](Cc2ccc(O)cc2)C(=O)N(C)[C@@H](C)C(=O)N[C@@H](CC(N)=O)C(=O)N2CCC[C@H]2C(=O)N[C@@H](Cc2c[nH]cn2)C(=O)N[C@@H](CC(C)C)C(=O)N(C)CC(=O)N[C@@H](Cc2c[nH]c3ccccc23)C(=O)N[C@@H](CO)C(=O)N[C@@H](Cc2c[nH]c3ccccc23)C(=O)N1C | Programmed cell death 1 ligand 1 (CD274, Homo sapiens, UniProt Q9NZQ7) | ligand displacement, radioligand |  |  | 12.5 nM
O=C(Nc1ccccc1)c1ccccc1O | Histone deacetylase 4 (HDAC4, Homo sapiens, UniProt P56524) | enzyme activity, inhibitor, fluorescence |  |  | > 10000 nM

Repeated from above:
SMILES | target | assay | test system | setting | IC50
O=C(NCCCCCn1ccc2ccc(F)cc21)Oc1cccc(F)c1 | Fatty-acid amide hydrolase 1 (Faah, Rattus norvegicus, UniProt P97612) |  | rat brain homogenate | 60 min, 37 °C | 15 nM
CC(C)C[C@H](NC(=O)[C@H](CC(C)C)NC(=O)[C@H](CCC(=O)O)NC(=O)[C@@H](N)CS)C(=O)O | PPO3 (Agaricus bisporus, UniProt C7FF04) | enzyme activity, inhibitor |  |  | 149000 nM
